Experimental data from different studies.
Lines come from different studies, so protocols differ. ± marks the error that the study gave.

Clc1ccc(-c2cc(Cl)c(Cl)c(Cl)c2)c(Cl)c1
literature range factor (PDMS-water partitioning; PCB compilation; baseline: maximum over minimum K): 1.2

CC(=O)c1c(C)c2cnc(Nc3ccc(C4CCN(CCS(C)(=O)=O)CC4)cn3)nc2n(C2CCCC2)c1=O
elimination rate constant (human patients, plasma; oral, 75 mg twice daily, day 21 multiple doses, added: fulvestrant): 2.22e-05 s⁻¹

CCCCCCCCCOC(=O)CCCCCCCN(CCO)CCCCCCCC(=O)OC(CCCCCCCC)CCCCCCCC
tolerability (measured: IL-6, MCP-1, ALT, AST; BALB/c mice; intravenous, 6 mg/kg siRNA, 6 h cytokines, 24 h ALT/AST, LNP formulation): not toxic

CN1CCN(c2ccc(Nc3nccc(-c4ccc(Cl)cc4)n3)cc2C(F)(F)F)CC1
toxicity (zebrafish embryos; 25 µM, 5 d): 0%

CC(C)n1c(C2CCNCC2)nc2c([N+](=O)[O-])c(Br)c(Br)cc21
adverse events causing interruption (measured: Hyponatremia; AML patients; 125 mg): 2%

c1ccc2c(c1)cc1ccc3cccc4ccc2c1c34
log K(PDMS-water) (fresh water; 12 (unit not given), 20 °C, S30-1 sampler, 30 µm): 5.21 ± 0.05

C=CC(=O)N1CC[C@H](n2nc(C#Cc3cc(OC)cc(OC)c3)c3c(N)ncnc32)C1
adverse drug reaction incidence (patients with advanced solid tumours; oral, dose not given, Diarrhea, any grade, QD, added: phosphate-binding therapy): 17.5%

Cc1nc(-c2ccc(OCCc3cccc(F)c3)c(C(N)=O)c2)cs1
metabolized fraction (male CD-1 mouse liver microsomes; concentration not given, 30 min, pH 7.4): 84%

COc1cc2c(Oc3ccc4[nH]c(C)cc4c3F)ccnc2cc1OCC1(N)CC1
grade 3 Hypertension (paediatric recurrent refractory sarcoma; 10 mg): 0%

C=C(CN(C(=O)c1c(C(F)F)nn(C)c1F)C1CC1)c1ccc(Cl)cc1Cl
mortality (static acute toxicity test; zebrafish (Brachydanio rerio); 0.833 mg a.i./L, 96 h): 30%

O[C@H]1CCCN[C@@H]1CCCn1cnc2c(Cl)c(Cl)ccc21
AUClast geometric LS mean (healthy CYP2D6 intermediate metabolizers, plasma; oral, dose not given, added: pirfenidone): 1880 ng·h/mL

CC/C(=C(\c1ccccc1)c1ccc(OCCN(C)C)cc1)c1ccccc1
Tmax (CD-1 mouse, male, lung; intraperitoneal, 1 mg/kg): 6 h

CC(C)(c1ccccc1)c1cc(-n2nc3ccccc3n2)c(O)c(C(C)(C)c2ccccc2)c1
daily dermal exposure dose (human aged 6-11 years; concentration not given, spray sunscreen, mean): 9.9 ng/kg/day

CCCCCCCCCCCCCCCC(=O)N[C@@H](CCC(=O)NCCCC[C@H](NC(=O)[C@H](CC(=O)O)NC(=O)[C@H](CO)NC(=O)[C@@H](NC(=O)[C@H](Cc1ccccc1)NC(=O)[C@@H](NC(=O)CNC(=O)[C@H](CCC(N)=O)NC(=O)[C@H](CO)NC(=O)[C@@H](N)Cc1c[nH]cn1)[C@@H](C)O)[C@@H](C)O)C(=O)N[C@@H](CO)C(=O)N[C@@H](CCC(=O)O)C(=O)N[C@@H](Cc1ccc(O)cc1)C(=O)N[C@@H](CC(C)C)C(=O)N[C@@H](CC(=O)O)C(=O)N[C@@H](CO)C(=O)N[C@@H](CCC(=O)O)C(=O)N[C@@H](CCCNC(=N)N)C(=O)N[C@@H](C)C(=O)N[C@@H](CCCNC(=N)N)C(=O)N[C@@H](CC(=O)O)C(=O)N[C@@H](Cc1ccccc1)C(=O)N[C@H](C(=O)N[C@@H](C)C(=O)N[C@@H](Cc1c[nH]c2ccccc12)C(=O)N[C@@H](CC(C)C)C(=O)N[C@@H](CCC(=O)O)C(=O)N[C@@H](C)C(=O)NCC(=O)NCC(=O)O)C(C)C)C(=O)O
treatment-related adverse events (measured: decreased appetite; human, CrCl ≥30 to <45 mL/min; subcutaneous, 100 µg single dose): 18.2%

CC(C)C[C@@H]1NC(=O)CNC(=O)[C@H](CCCCN)NC(=O)[C@H](CCCNC(=N)N)NC(=O)[C@H]([C@@H](C)O)NC(=O)[C@@H]2CSSC[C@@H]3NC(=O)[C@H]([C@@H](C)O)NC(=O)CNC(=O)CNC(=O)[C@H](C(C)C)NC(=O)[C@@H]4CSSC[C@H](NC(=O)[C@H](CCCCN)NC(=O)[C@H](CSSC[C@H](NC(=O)[C@H](C(C)C)NC(=O)[C@@H]5CCCN5C1=O)C(=O)NCC(=O)N[C@@H](CCC(=O)O)C(=O)N[C@@H]([C@@H](C)O)C(=O)N4)NC(=O)CNC(=O)[C@@H]1CCCN1C(=O)[C@H]([C@@H](C)O)NC(=O)[C@H](CC(N)=O)NC3=O)C(=O)N[C@@H](CO)C(=O)N[C@@H](Cc1c[nH]c3ccccc13)C(=O)N1CCC[C@H]1C(=O)N[C@@H](C(C)C)C(=O)N2
remaining peptide (HPLC; ammonium bicarbonate 0.1 M; 180 µM, 7 days, pH 9.0, 37 °C, deamidation stability): 100%

CO[C@H]1C[C@@H]2CC[C@@H](C)[C@@](O)(O2)C(=O)C(=O)N2CCCC[C@H]2C(=O)O[C@H]([C@H](C)C[C@@H]2CC[C@@H](OC(=O)NCCOCCOCCOCCOCCOCCOCCOCCOCCC(=O)N3CCc4cc(Cn5nc(-c6ccc7oc(N)nc7c6)c6c(N)ncnc65)ccc4C3)[C@H](OC)C2)C[C@@H](O)[C@H](C)/C=C(\C)[C@@H](O)[C@@H](OC)C(=O)[C@H](C)C[C@H](C)/C=C/C=C/C=C/1C
anaemia incidence (patients with advanced solid tumours; intravenous, 16 mg weekly, any grade): 25%

C[C@H]1COCCN1c1nc(NCc2cccnc2C(F)(F)F)c2cccnc2n1
BP change (anaesthetized rat; intravenous, 3 mg/kg; baseline: control): 4.6%

CCS(=O)(=O)Nc1ccc(Oc2ccc(F)cc2F)c(-c2cn(C)c(=O)c3[nH]ccc23)c1
treatment-emergent adverse events (serious myocardial infarction; human, relapsed/refractory AML; oral, dose not given): 5%

COc1ccc(-c2c(-c3ccc(C#N)c(F)c3)nc(N3CCC(N)CC3)n(C)c2=O)cc1F
serious adverse event incidence (measured: Neutropenia; human patients; oral, 60 mg, dose expansion): 0%

N.N.[Cl][Pt][Cl]
body weight (mouse xenograft model; dose not given, day 8, group mean): 20.4 g

CN1CC[C@@H](c2c(O)cc(O)c3c(=O)cc(-c4ccc(C(F)(F)F)cc4Cl)oc23)[C@@H]1CO
patients with adverse event (measured: Thrombocytopenia; relapsed B-cell malignancies; oral, 100 mg, grade 3-4, intermittent dosing): 0%

Clc1cccc(-c2ccccc2)c1
literature range factor (PDMS-water partitioning; PCB compilation; baseline: maximum over minimum K): 1.2

C[C@@H](NC(=O)N1C(=O)[C@H](Cc2ccnc(N)c2)[C@H]1C(=O)O)C1CCCCC1
incidence of infusion site pain (healthy adult Chinese volunteers; continuous intravenous infusion, 2.25 mg/kg/h, 5-day infusion, CTCAE 5.0 grading): 0%

CC1(C)C(C=C(Cl)Cl)C1C(=O)OC(C#N)c1ccc(F)c(Oc2ccccc2)c1 (stereo not shown)
CLint (pooled human liver cytosol): 438 µL/min/mg

CCN(CCO)CCCC(C)Nc1ccnc2cc(Cl)ccc12 (stereo not shown)
nausea patients (newly diagnosed glioblastoma patients; oral, 200 mg/dose, grade 1, added: radiotherapy and temozolomide): 66%

C[C@]1(CO)Cc2ncn(-c3ccc(C#N)c(Cl)c3)c2C(=O)O1
tmax (human, plasma; 3 mg, first dose fasted): 0.5 h

C[C@]12CC[C@H](n3ccnc3)CC1=CC[C@@H]1[C@@H]2CC[C@]2(C)C(n3cnc4ccccc43)=CC[C@@H]12.Cl
t_half (CD-1 mouse, male, plasma; intravenous, 1 mg/kg): ~180 min

O=C(O)CCCOc1ccc(F)cc1-c1cc(-c2ccccc2C(F)(F)F)n(-c2ccccc2)n1
organ weight (female Crl:CD(SD) rats, brain; intravenous, 25 µg/kg, 1 d): 1.88 ± 0.09 g
